Experimental data from different studies.
Protocols differ between the studies behind these lines. Several values in a cell are separate wells, animals, samples, runs or records. ± gives the spread as reported.
TRPM8: Transient receptor potential cation channel subfamily M member 8 (TRPM8, Homo sapiens, UniProt Q7Z2W7)
FFAR4: Free fatty acid receptor 4 (FFAR4, Homo sapiens, UniProt Q5NUL3)
Kir3.1/Kir3.2: Kir3.1/Kir3.2 (Homo sapiens, UniProt P48051+P48549)
GAP50: Glideosome-associated protein 50 (GAP50, Plasmodium falciparum, UniProt Q8I2X3)
NADH dehydrogenase [ubiquinone] iron-sulfur protein 7, mitochondrial/NADH dehydrogenase [ubiquinone] iron-sulfur protein 2, mitochondrial/MT-ND1: NADH dehydrogenase [ubiquinone] iron-sulfur protein 7, mitochondrial/NADH dehydrogenase [ubiquinone] iron-sulfur protein 2, mitochondrial/MT-ND1 (Homo sapiens, UniProt O75251+O75306+P03886)
Nuclear receptor subfamily 4 group A member 2 LBD: Nuclear receptor subfamily 4 group A member 2, LBD (Homo sapiens, UniProt P43354)
CXCR4: C-X-C chemokine receptor type 4 (CXCR4, Homo sapiens, UniProt P61073)
MAOA: Amine oxidase [flavin-containing] A (MAOA, Homo sapiens, UniProt P21397)

SMILES	target	test	system	conditions	scale	endpoint	value
CN(C)S(=O)(=O)c1ccc2c(c1)/C(=C/c1cc3c([nH]1)CCCC3)C(=O)N2	TRPM8	antagonist	HEK293	5 µM	baseline: control	remaining activity	93.1 ± 3.83%
CCCCCCCCCNc1cc(=O)n(C)c(=O)[nH]1	FFAR4	β-arrestin recruitment	CHO	10 µM	baseline: 30 µM TUG-891	agonist effect	0%
CCCCC[C@H](O)/C=C/[C@H]1C(=O)C[C@H](O)[C@@H]1C/C=C\CCCC(=O)O	Prostaglandin D2 receptor (PTGDR, Homo sapiens, UniProt Q13258, D72N)	agonist	–	1.25 µM	–	activation	88.4%
CCCCCCCCCCNc1cc(=O)n(C)c(=O)[nH]1	FFAR4	antagonist, β-arrestin recruitment	CHO cells	10 µM	–	inhibition	15 ± 1%
NCCCS(=O)(=O)O	Sodium- and chloride-dependent taurine transporter (SLC6A6, Homo sapiens, UniProt P31641, G62A)	binding, microscale thermophoresis	–	500 µM, room temperature, with: 50 nM labelled protein	higher = more binding	normalised MST signal	0.035
CCc1cc(NC(=O)COc2cccc(Cl)c2Cl)n(C2CCOCC2)n1	Kir3.1/Kir3.2	thallium flux, activator	HEK293	–	baseline: standard compound	Emax	87%
Cc1cnc(CCNC(=O)c2cc(-c3ccc(Cl)cc3)cs2)[nH]1	GAP50	binding, surface plasmon resonance	–	1:1 binding model	–	koff	0.723 s⁻¹
NC(=O)NO	NADH dehydrogenase [ubiquinone] iron-sulfur protein 7, mitochondrial/NADH dehydrogenase [ubiquinone] iron-sulfur protein 2, mitochondrial/MT-ND1	complex I-dependent respiration, Seahorse XF96	HCT-116	400 µM, 24 h	baseline: control	oxygen consumption rate	70.5 ± 7.99%
CCC(=O)NS(=O)(=O)c1ccc(-c2c(-c3ccccc3)noc2C)cc1	Nuclear receptor subfamily 4 group A member 2 LBD	reporter gene, Gal4 hybrid reporter	–	50 µM	baseline: vehicle	activation	0.51 fold
CC(C)(C)c1ccc(CCNc2cc(=O)[nH]c(=O)[nH]2)cc1	FFAR4	agonist, β-arrestin recruitment	CHO cells	10 µM	baseline: 30 µM TUG-891	agonist effect	-1 ± 1%
COc1ccccc1C(=O)NCc1ccc(CNS(=O)(=O)c2ccc(C)cc2)cc1	CXCR4	binding, inhibitor, competitive binding	MDA-MB-231	with: biotinylated TN14003	–	EC	100 nM
O=C(COc1cccc(Cl)c1Cl)Nc1cc(C2CCC2)nn1C1CCOCC1	Kir3.1/Kir3.2	activator	HEK293	–	–	Emax	41%
O=C(NCc1ccc(CNS(=O)(=O)c2ccccc2)cc1)c1cccnc1	CXCR4	binding, inhibitor, competitive binding	MDA-MB-231	with: biotinylated TN14003	–	EC	10 nM
O=C(COP(=O)(O)O)[C@@H](O)[C@H](O)[C@H](O)COP(=O)(O)O	PGM1 (Homo sapiens, UniProt P36871)	thermal proteome profiling	HepG2 cell lysate	concentration not given, 57 over 37 °C	baseline: compound over control	thermal stability ratio	5.92 and 3.85 and 3.09
O=c1cc(N2CCOCC2)oc2c(-c3ccccc3)cccc12	TRPM8	antagonist	HEK293	5 µM	baseline: control	remaining activity	89.1 ± 9.62%
Nc1nc2c(F)c(F)c(F)cc2[nH]1	Voltage-gated hydrogen channel 1 (HVCN1, Homo sapiens, UniProt Q96D96, F150A)	proton current, inhibitor, inside-out patch clamp	–	–	–	Hill coefficient	0.94 ± 0.05
CC(C)(C)NC(=O)[C@@H]1CN(Cc2cnc3occc3c2)CCN1C[C@@H](O)C[C@@H](Cc1ccccc1)C(=O)N[C@H]1c2ccccc2C[C@H]1O	GAP50	surface plasmon resonance	–	–	–	kon	98700 M⁻¹ s⁻¹
CCN1CCC[C@H]1CNC(=O)c1c(O)c(Cl)cc(Cl)c1OC	Probable G-protein coupled receptor 153 (GPR153, Homo sapiens, UniProt Q6NV75)	β-arrestin recruitment, TANGO luminescence, measured: GPR153	–	concentration not given	baseline: basal luminescence	log2 fold change	0.037

SMILES	target	test	system	conditions	scale	endpoint	value
O=C(COc1ccc(C(F)(F)F)cc1C(F)(F)F)Nc1cc(C2CC2)nn1CC(F)(F)F	Kir3.1/Kir3.2	thallium flux, activator	HEK293	–	baseline: standard compound	Emax	74%
O=C(O)C1=CC(=C(c2ccc(O)c(C(=O)O)c2)c2ccc(O)c(C(=O)O)c2)C=CC1=O	P2X purinoceptor 3 (P2RX3, Homo sapiens, UniProt P56373)	patch clamp	HEK293	4 µM, unit not given	baseline: baseline	remaining current	0.094 ± 0.009
Oc1cccc(-c2nc(N3CCOCC3)c3oc4ncccc4c3n2)c1	TRPM8	antagonist	HEK293	5 µM	baseline: control	remaining activity	112 ± 10.3%
Nc1ncnc2c1ncn2[C@@H]1O[C@H](COP(=O)(O)OP(=O)(O)OP(=O)(O)O)[C@@H](O)[C@H]1O	rat Ca2+-activated nonselective cation channel	–	–	one-subunit noncompetitive model	–	mutual destabilization factor ξ	203
COc1cc(Nc2ncc3c(n2)-c2ccc(Cl)cc2C(c2c(F)cccc2OC)=NC3)ccc1C(=O)O	BMX	kinase activity	–	1 µM	–	remaining activity	25%
CCOc1ccccc1/C=C1\OC(=O)c2c1cc(C)[nH]c2=O	Dual specificity calcium/calmodulin-dependent 3',5'-cyclic nucleotide phosphodiesterase 1C, isoform PDE1C2 (PDE1C, Homo sapiens, UniProt Q14123)	enzyme activity, inhibitor	–	with: 3H-cGMP substrate	–	ligand efficiency	0.42
COc1nc2ccc(Br)cc2cc1[C@@H](c1ccccc1)[C@@](O)(CCN(C)C)c1cccc2ccccc12	GAP50	binding, surface plasmon resonance	–	1:1 binding model	–	koff	0.0182 s⁻¹
O=c1[nH]c(NCCc2ccc(Br)cc2)c(Br)c(=O)[nH]1	FFAR4	antagonist, β-arrestin recruitment	CHO cells	10 µM	–	inhibition	14 ± 5%
NCc1ccc(Br)cc1	MAOA	substrate	–	pH 9.0, α,α-protio substrate	–	kcat	1.02 ± 0.0132 s⁻¹
C=C1C(=O)O[C@@H]2C[C@@]3(C)CCCC(=C)[C@@H]3C[C@H]12	Nuclear receptor subfamily 4 group A member 2 LBD	reporter gene, Gal4 hybrid reporter	–	10 µM	baseline: vehicle	activation	0.82 fold
N=C(NO)NCC[C@H](N)C(=O)O	Arginase (Schistosoma mansoni, UniProt Q6WVP6)	isothermal titration calorimetry	–	concentration not given	–	binding enthalpy	-16 ± 0.3 kcal/mol
Nc1c(Cl)c(Cl)nc(C(=O)O)c1Cl	Germin-like protein subfamily 3 member 1 (GLP1, Arabidopsis thaliana, UniProt P94040)	microscale thermophoresis	Arabidopsis protoplast extract	concentration not given	–	binding	no binding
CCCCCCNc1[nH]c(=O)[nH]c(=O)c1Br	FFAR4	antagonist, β-arrestin recruitment	CHO cells	10 µM, with: 4 µM TUG-891	–	inhibition	6 ± 4%
Nc1ccc(C(=O)O)cc1	BEST1, with wild-type BEST1 (Homo sapiens, UniProt O76090, R218H)	ion current, whole-cell patch clamp	HEK293 co-expressing mutant and wild-type	concentration not given, voltage 0 mV	–	current density	-0.01 pA/pF and 0.01 pA/pF and -0.1 pA/pF and -0.08 pA/pF and -0.03 pA/pF and -0.09 pA/pF and -0.02 pA/pF
NCc1ccc(F)cc1	MAOA	substrate	–	pH 9.0, α,α-protio substrate	–	kcat	0.3 ± 0.0055 s⁻¹
O=c1[nH]c(NCCCc2ccccc2)c(Br)c(=O)[nH]1	FFAR4	agonist, β-arrestin recruitment	CHO cells	10 µM	baseline: 30 µM TUG-891	agonist effect	0%
NC(=O)NOCCCCCCCCCCCCCC[P+](c1ccccc1)(c1ccccc1)c1ccccc1.O=C([O-])C(F)(F)F	NADH dehydrogenase [ubiquinone] iron-sulfur protein 7, mitochondrial/NADH dehydrogenase [ubiquinone] iron-sulfur protein 2, mitochondrial/MT-ND1	complex I-dependent respiration, Seahorse XF96	HCT-116	0.75 µM, 24 h	baseline: control	oxygen consumption rate	57.9 ± 5.35%
